Published values pooled from the literature.
Compare with care: the assays were run in different laboratories. Numbers after ± are the reported error.

O=S(=O)(Nc1ccccc1)c1ccc(NC(=S)Nc2ccccc2)cc1 — serum enzyme activity (measured: AST; female mouse, blood; oral, 20 mg/kg daily, 14 days): 531 U/L
C=CCNc1c(O)cc2c(O)c1C[C@@H](C)C[C@H](OC)[C@H](O)[C@@H](C)/C=C(\C)[C@H](OC(N)=O)[C@@H](OC)/C=C\C=C(/C)C(=O)N2 — patients with nausea TEAE (unresectable or metastatic STS, GIST, other; intravenous, 90 mg/m^2): 33%
C=CC(=O)N1CC[C@H](n2nc(C#Cc3cc(OC)cc(OC)c3)c3c(N)ncnc32)C1 — adverse drug reaction incidence (patients with advanced solid tumours; oral, dose not given, Malaise, any grade, QD, together with: phosphate-binding therapy): 12.5%
CCc1ccc(CC/C=C/c2ccc3c(c2)C(=O)CC3)cc1 — Neutrophil percentage (Sprague-Dawley rat, female; oral, 450 mg/kg/day, 14 days): 23.4%
C[C@]1(CO)Cc2ncn(-c3ccc(C#N)c(Cl)c3)c2C(=O)O1 — AUC(0-inf) geometric mean (human, plasma; oral, 10 mg single dose, fasted): 2.33 µM·h
Cc1cc(C)c(CNC(=O)c2cc(Cl)c3c(c2C)O[C@@](C)([C@H]2CC[C@H](N(C)C)CC2)O3)c(=O)[nH]1 — incidence of muscle spasms (relapsed/refractory NHL patients; dose not given, trial, safety set, all TEAEs grade 5): 0%
C/C(=N\C#N)N(C)Cc1ccc(Cl)nc1 — concentration (soil; 28 days, nominal 1.1): 0.05 mg/kg dry soil
CC(C)C[C@H](NC(=O)[C@H](CCCCN)NC(=O)OCC1c2ccccc2-c2ccccc21)C(=O)N[C@H](C(=O)N[C@@H](Cc1ccccc1)C(=O)N[C@@H](Cc1ccccc1)C(=O)N[C@@H](CCCCN)C(=O)NCC(=O)N[C@@H](Cc1ccccc1)C(=O)N[C@@H](C)C(=O)N[C@@H](Cc1c[nH]c2ccccc12)C(=O)N[C@@H](CC(N)=O)C(=O)N[C@H](C(=O)N[C@H]1CSSC[C@@H](C(=O)N[C@@H](Cc2c[nH]cn2)C(=O)N[C@@H](CCCNC(=N)N)C(=O)N[C@@H](CCCNC(=N)N)C(=O)N[C@@H](C)C(=O)N[C@@H](CC(N)=O)C(N)=O)NC(=O)[C@H](C(C)C)NC(=O)[C@H](CCCNC(=N)N)NC(=O)[C@H](C(C)C)NC(=O)CNC(=O)[C@H](CC(N)=O)NC(=O)[C@H](CCCNC(=N)N)NC(=O)[C@H](Cc2ccc(O)cc2)NC(=O)[C@H](C(C)C)NC1=O)C(C)C)C(C)C — AST (ICR mouse, blood; intramammary, 10 mg/kg, day 5, 3 d dosing): 28.5 ± 1.17 IU/L
[11CH3]Oc1ccc(NC(=O)c2cc([N+](=O)[O-])ccc2Cl)cc1 — intact radiotracer (heparinized rat blood; 30 min): 30%
C[N+]1(C)[C@@H]2C[C@@H](OC(=O)C(O)(c3cccs3)c3cccs3)C[C@H]1[C@@H]1O[C@@H]12 — absorption rate constant (dog; oral): 0.2 h⁻¹
Clc1ccc(-c2ccccc2)cc1 — total protein (female Sprague-Dawley rats, serum; inhalation, 23 µg/rat, 2 h after exposure): 5 ± 1 g/dL
CN1CC[C@@H](c2c(O)cc(O)c3c(=O)cc(-c4ccc(C(F)(F)F)cc4Cl)oc23)[C@@H]1CO — patients with adverse event (measured: Nausea; B-cell malignancies; oral, 150 mg, intermittent dosing): 0%
CN1CCN(S(=O)(=O)c2cc([N+](=O)[O-])ccc2N(CCOS(C)(=O)=O)CCOS(C)(=O)=O)CC1 — alkaline phosphatase (naive NOD/SCID mice, pooled blood; intraperitoneal, 18.8 mg/kg, week 4): 74 U/L
CC(=O)c1c(C)c2cnc(Nc3ccc(C4CCN(CCS(C)(=O)=O)CC4)cn3)nc2n(C2CCCC2)c1=O — patients with TRAE grade ≥3 (HR+/HER2- advanced breast cancer patients; oral, 100 mg): 66.7%

Some of these lines once more:
O=S(=O)(Nc1ccccc1)c1ccc(NC(=S)Nc2ccccc2)cc1 — serum enzyme activity (measured: AST; female mouse, blood; oral, 20 mg/kg daily, 14 days): 531 U/L
Cc1cc(C)c(CNC(=O)c2cc(Cl)c3c(c2C)O[C@@](C)([C@H]2CC[C@H](N(C)C)CC2)O3)c(=O)[nH]1 — incidence of muscle spasms (relapsed/refractory NHL patients; dose not given, trial, safety set, all TEAEs grade 5): 0%
